Published values of several laboratories.
Each numbered part is a random draw from the data of one study; scales do not carry over between parts. Several values in a cell are separate wells, animals, samples, runs or records.
UniProt P62344, sequence (whole entry, looked up): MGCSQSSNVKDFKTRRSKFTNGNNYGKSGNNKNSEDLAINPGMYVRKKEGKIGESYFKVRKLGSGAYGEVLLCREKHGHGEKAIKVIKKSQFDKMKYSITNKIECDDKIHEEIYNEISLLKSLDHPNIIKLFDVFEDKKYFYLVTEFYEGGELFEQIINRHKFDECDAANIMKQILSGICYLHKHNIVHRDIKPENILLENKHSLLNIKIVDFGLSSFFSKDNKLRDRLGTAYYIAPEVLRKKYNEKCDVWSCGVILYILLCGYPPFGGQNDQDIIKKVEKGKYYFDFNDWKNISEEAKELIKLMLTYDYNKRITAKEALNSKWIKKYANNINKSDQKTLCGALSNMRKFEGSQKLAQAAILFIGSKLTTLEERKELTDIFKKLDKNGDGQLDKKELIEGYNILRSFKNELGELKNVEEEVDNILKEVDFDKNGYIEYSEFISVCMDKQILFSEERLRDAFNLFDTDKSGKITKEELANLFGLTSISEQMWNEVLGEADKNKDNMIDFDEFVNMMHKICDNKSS
UniProt P05771, sequence (whole entry, looked up): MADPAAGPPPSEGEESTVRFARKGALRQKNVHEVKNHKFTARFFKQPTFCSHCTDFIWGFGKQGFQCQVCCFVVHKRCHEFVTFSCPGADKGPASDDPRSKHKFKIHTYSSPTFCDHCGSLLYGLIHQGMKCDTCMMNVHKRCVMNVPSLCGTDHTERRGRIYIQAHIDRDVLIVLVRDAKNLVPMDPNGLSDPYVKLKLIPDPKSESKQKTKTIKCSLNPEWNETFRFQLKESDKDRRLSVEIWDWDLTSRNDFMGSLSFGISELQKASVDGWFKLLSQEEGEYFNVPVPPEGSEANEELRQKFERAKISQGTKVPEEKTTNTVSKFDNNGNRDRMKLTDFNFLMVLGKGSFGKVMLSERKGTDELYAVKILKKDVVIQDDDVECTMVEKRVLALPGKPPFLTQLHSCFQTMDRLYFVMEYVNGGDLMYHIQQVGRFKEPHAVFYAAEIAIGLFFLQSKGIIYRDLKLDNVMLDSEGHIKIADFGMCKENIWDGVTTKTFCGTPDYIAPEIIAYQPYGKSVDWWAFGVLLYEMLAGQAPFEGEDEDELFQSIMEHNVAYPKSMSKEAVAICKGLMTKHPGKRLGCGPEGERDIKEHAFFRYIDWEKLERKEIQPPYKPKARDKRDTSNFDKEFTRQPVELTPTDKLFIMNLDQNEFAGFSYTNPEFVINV
UniProt P06493, sequence (whole entry, looked up): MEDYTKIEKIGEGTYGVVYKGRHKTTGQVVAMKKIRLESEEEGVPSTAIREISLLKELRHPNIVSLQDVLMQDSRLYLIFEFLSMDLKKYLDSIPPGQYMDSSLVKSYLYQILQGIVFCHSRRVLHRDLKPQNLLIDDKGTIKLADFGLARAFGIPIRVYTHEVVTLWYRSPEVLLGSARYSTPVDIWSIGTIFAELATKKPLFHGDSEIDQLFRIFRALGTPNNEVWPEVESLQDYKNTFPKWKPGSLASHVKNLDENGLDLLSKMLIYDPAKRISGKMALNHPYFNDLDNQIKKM
UniProt Q6P2M8, sequence (whole entry, looked up): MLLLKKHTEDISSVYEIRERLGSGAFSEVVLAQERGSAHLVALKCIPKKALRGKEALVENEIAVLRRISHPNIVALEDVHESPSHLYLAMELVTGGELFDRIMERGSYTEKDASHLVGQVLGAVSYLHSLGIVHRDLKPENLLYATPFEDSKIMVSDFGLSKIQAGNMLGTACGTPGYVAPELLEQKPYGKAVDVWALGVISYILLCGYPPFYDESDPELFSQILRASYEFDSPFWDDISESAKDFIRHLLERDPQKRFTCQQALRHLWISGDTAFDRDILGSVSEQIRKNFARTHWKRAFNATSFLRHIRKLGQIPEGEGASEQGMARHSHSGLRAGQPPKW

Sample 1
Compound: CC(C)(C)c1cc(C=C(C#N)C#N)cc(Br)c1O
Read-out: enzyme activity
Action: inhibitor
Concentration: 0.5 µM
| target | baseline | remaining activity |
| --- | --- | --- |
| Cyclin-dependent kinase 1, with cyclin A (CDK1, Homo sapiens, UniProt P06493) |  | 87.8% |
| PRKACA (Homo sapiens, UniProt P17612) | control | 102% |
| PNCK (Homo sapiens, UniProt Q6P2M8) |  | 107% |
| Protein kinase C beta type, isoform beta-I (PRKCB, Homo sapiens, UniProt P05771) | control | 102% |

Sample 2
Structure (SMILES): CCOc1ccc(Nc2c3c(nc4ccccc24)CCC3)cc1
Organism: Leishmania donovani
| read-out | cells | strain | sample | concentration | notes | inhibition |
| --- | --- | --- | --- | --- | --- | --- |
|  | THP-1 intracellular amastigotes | DD8 resistant line |  | 20 µM | resistance confirmation | 84% |
| parasite growth |  | DD8 amphotericin B-resistant | promastigotes | 3.33 µM |  | 55% and 61% and 64% and 62% |
|  |  | DD8 resistant line | promastigotes | 66.66 µM | resistance confirmation | 100% |
| parasite growth |  | DD8 amphotericin B-resistant | intracellular amastigotes | 80 µM |  | 100% |

Sample 3
Target: HLA class I histocompatibility antigen, A alpha chain, allele A*80:01 (Homo sapiens, UniProt P04439)
Read-out: peptide-MHC binding
Molecule type: peptide
Concentration: concentration not given
| Sequence | binding |
| --- | --- |
| TVFRNQNRV | inactive |
| MHCDFAFWV | inactive |
| LRYGNVLDV | inactive |
| FNCGGEFFY | inactive |
| AALEGLSGF | inactive |
| FRRVAHSSL | inactive |
| TEGEGRVIL | inactive |
| ETIGLVRAL | inactive |

Further values, each from its own experiment
| Compound | target | read-out | technique | concentration | quantity | result |
| --- | --- | --- | --- | --- | --- | --- |
| CC(=O)c1c(NS(C)(=O)=O)c2cc(-c3ccc(Cl)cc3)c(-c3ccc(Cl)cc3Cl)nc2n(C)c1=O | Calcium-dependent protein kinase 1 (CDPK1, Plasmodium falciparum, UniProt P62344) | cell-free assay | competition with immobilised ligand | 1 µM | remaining binding | 99% |
